Measurements of several laboratories.
Compare with care: the assays were run in different laboratories. ± marks the error that the study gave.

CCCCn1cc(C(=O)O)c(=O)c2cc(F)c3[nH]nnc3c21
IC50 (SW-620; cell growth, SRB; 72 h): 33.1 ± 2.08 µg/mL

CC(=O)OC[C@H]1O[C@@H](Sc2sc(C(=O)c3ccc(C)cc3)c(N)c2-c2nc3ccccc3s2)[C@H](OC(C)=O)[C@@H](OC(C)=O)[C@H]1OC(C)=O
maximum non-toxic concentration (HEp-2; cytotoxicity; 72 h): 100 µg/mL

COC1C=COC2(C)Oc3c(C)c(O)c4c(c3C2=O)C2=NC3(CCN(CC(C)C)CC3)NC2=C(NC(=O)C(C)=CC=CC(C)C(O)C(C)C(O)C(C)C(OC(=O)c2cccnc2)C1C)C4=O (stereo not shown)
intracellular/extracellular ratio (THP-1 derived macrophages; reference: intracellular over extracellular): 44

CC1=CC(c2ccc[nH]2)=NC1=CNC12CC3CC(CC(C3)C1)C2
IC50 (HepG2; cell growth or viability, resazurin): 6.9 µM

Cc1cc(C#N)cc(C)c1Oc1nc(NC2CCN(Cc3ccc(Br)cc3)CC2)nc2ccccc12
CC50 (TZM-bl; cell growth or viability, XTT): > 0.23 µM

CCOc1c(C(C)(C)O)sc2cnc(Nc3ccc(N4CCC(N5CC6(COC6)C5)CC4)cc3OC)nc12
action potential duration (mouse ventricular cardiomyocytes; patch clamp, item: APD50; 1, 3 and 10 µM): no effect

OC[C@H]1O[C@H](OCCCCCCCCCCC(F)(F)C(F)(F)C(F)(F)C(F)(F)C(F)(F)C(F)(F)C(F)(F)C(F)(F)F)[C@H](O)[C@@H](O)[C@@H]1O
EC50 (B16-F10; cytotoxicity, MTT; 24 h): > 250 µM

COC1C=COC2(C)Oc3c(C)c(O)c4c(c3C2=O)C2=NC3(CCN(CC(C)C)CC3)NC2=C(NC(=O)C(C)=CC=CC(C)C(O)C(C)C(O)C(C)C(OC(=O)Nc2cnccn2)C1C)C4=O (stereo not shown)
intracellular/extracellular ratio (THP-1 derived macrophages; reference: intracellular over extracellular): 31

Cc1ccc(NC(=O)N2CCCN3CCC(c4ccc(C#Cc5cccnc5)cc4)C3C2)cc1 (stereo not shown)
Papp B→A (MDCK-MDR1; Caco-2): 2.49 ×10⁻⁶ cm/s

CC/C(=C(\c1ccc(O)cc1)c1ccc(OCCN(C)CCOCCOCCOCCOCCOCCN(C)CCOc2ccc(/C(=C(/CC)c3ccccc3)c3ccc(O)cc3)cc2)cc1)c1ccccc1
cell density (U2OS transfected with ERβ; 10 µM, cytotoxicity): 15%

C=C(c1ncc(C(=O)O)cn1)c1cc2c(cc1C)C(C)(C)CCC2(C)C
lowest effective concentration (TK6; cytotoxicity, GreenScreen; with: rat liver S9): 213 µg/mL

CC/C=C\C/C=C\C/C=C\C/C=C\C/C=C\C/C=C\CCC(=O)OC(CO)COP(=O)([O-])OCC[N+](C)(C)C (stereo not shown)
Papp (human brain-like endothelial cell monolayer; LC-MS; in vitro BBB model; 10 µM, 180 min, pH 7.4): 63.7 ×10⁻⁶ cm/s

Nc1ncnc2c1ncn2[C@@H]1O[C@H](CO)[C@@H](O)[C@H]1F
CC50 (SkMC; sulforhodamine B; 11 days, galactose medium): > 250 µM

Cc1cc(C#N)cc(C)c1Oc1nc(NC2CCN(Cc3cccc(C(N)=O)c3)CC2)nc2ccccc12
CC50 (TZM-bl; cell growth or viability, XTT): > 0.247 µM

[99Tc+].[C-]#[N+]CC(C)(C)OC.[C-]#[N+]CC(C)(C)OC.[C-]#[N+]CC(C)(C)OC.[C-]#[N+]CC(C)(C)OC.[C-]#[N+]CC(C)(C)OC.[C-]#[N+]CC(C)(C)OC
canalicular efflux (rat sandwich-cultured hepatocytes; 20 min, culture day 4; reference: preloaded amount): 23.6 ± 3.4%

C=CC(=O)Nc1cc(Nc2ncnc(Nc3cc(Cl)c(F)cc3C(C)(C)O)n2)c(OC)cc1N1CCC(N(C)C)C1 (stereo not shown)
CLint (human hepatocytes): 2.8 (µL/min)/(10⁶ cells)

C=Cc1c(C)c2cc3nc(cc4[nH]c(cc5nc(cc1[nH]2)C(C)=C5CCC(=O)NC(CC(=O)[O-])C(=O)[O-])c(CCC(=O)NC(CC(=O)[O-])C(=O)[O-])c4C)C(C)(O)C3=CC=NO.[Na+].[Na+].[Na+].[Na+] (stereo not shown)
cellular content (T.Tn cells; 50 µg/mL, 4°C): 20 ng/mg protein

CC(=O)O[C@@H]1[C@@H](OC(C)=O)[C@H](Sc2sc(C(=O)c3ccc(C)cc3)c(N)c2-c2nc3ccccc3s2)OC[C@H]1OC(C)=O
maximum non-toxic concentration (HEp-2; cytotoxicity; 72 h): 90 µg/mL

OC[C@H]1O[C@@H](n2cnc3c(O)ncnc32)[C@H](F)[C@@H]1O
CC50 (SkMC; sulforhodamine B; 11 days, glucose medium): > 250 µM

Cc1ccc(S(=O)(=O)Nn2c3c(cc(-c4nc5ccccc5s4)c2=O)CCCC3)cc1
maximum non-toxic concentration (HEp-2; trypan blue; 72 h): 130 µg/mL

C=C(c1cc(F)c(C(=O)O)c(F)c1)c1cc2c(cc1C)C(C)(C)CCC2(C)C
lowest effective concentration (TK6; cytotoxicity, GreenScreen; with: rat liver S9): 47.3 µg/mL

O=C(c1cc2ccc(Cl)cc2s1)N(c1ccc(OCCN2CCCC2)cc1)c1ccc(OCCN2CCCC2)cc1
viability (C2C12 differentiated myotubes; 100 µM, 72 h): 5%

Cc1cc(C#N)cc(C)c1Oc1nc(NC2CCN(Cc3ccc(S(C)(=O)=O)cc3)CC2)nc2ncccc12
CC50 (TZM-bl; cell growth or viability, XTT): 40 µM

CC/C(=C(\c1ccc(O)cc1)c1ccc(OCCN(C)CCOCCN(C)CCOc2ccc(/C(=C(/CC)c3ccccc3)c3ccc(O)cc3)cc2)cc1)c1ccccc1
cell density (U2OS transfected with ERβ; 10 µM, cytotoxicity): 79%

CCCCCCCO[C@@H]1O[C@H](CO)[C@@H](O[C@H]2O[C@H](CO)[C@@H](O)[C@H](O)[C@H]2O)[C@H](O)[C@H]1O
EC50 (B16-F10; cytotoxicity, MTT; 24 h): > 250 µM

F[P-](F)(F)(F)(F)F.F[P-](F)(F)(F)(F)F.[Cu+2].c1ccc(CN2CCCNCCN(Cc3ccccc3)CCCNCC2)cc1
IC90 (THP-1; cytotoxicity): > 15 µM

CC(=O)N[C@H](C(=O)N[C@H](C(=O)N[C@@H](CCCNC(=N)N)C(=O)N1Cc2ccccc2C[C@H]1C(=O)N[C@@H](Cc1ccccc1)C(N)=O)C1CCCCC1)C(C)C
cytokine level (human PBMC; Bio-Plex multiplex, item: IL-9; 250 µg/mL, 24 h): 16 ± 8.1 pg/mL

CC(=O)[O-].CN(C)C=O.F[P-](F)(F)(F)(F)F.[Co+2].c1ccc(CN2CCN3CCCN(CC2)CCN(Cc2ccccc2)CC3)cc1
IC50 (THP-1; cell growth or viability): > 10 µM

CC(C)C1CCC2(C)C3CCC4(CCC5=C(O4)C(C)(C)C(=O)C(=C(O)C=Cc4ccccc4)C5=O)C2C13 (stereo not shown)
CC50 (HEp-2; cell growth or viability): 26.6 µM

C=CC(=C)CC[C@]1(C)[C@H](C)C[C@H](OC(=O)CCCCCCC)[C@@]23C(=C[C@H](OC(C)=O)C[C@@H]12)[C@@H](OC(C)=O)O[C@H]3OC(C)=O
IC50 (KB-VIN (P-gp-overexpressing); cell growth, SRB): 5.03 µM

CC(C)=CCC[C@@H](C)[C@@H]1CC[C@]2(C)C3=C(CC[C@@]12C)[C@@]1(C)CC[C@H](OC(=O)c2ccccc2)C(C)(C)[C@@H]1CC3
inhibition (HCT-15; cell growth or viability, SRB; 50 µM): 15.6%

COc1ccc(S(=O)(=O)NCc2c[nH]nc2-c2cccs2)cc1
growth inhibition (HCT-8; 100 µM, 24 h): ~15%

O=c1[nH]cc(C(c2cccc(C(F)(F)F)c2)c2c[nH]c(=O)[nH]c2=O)c(=O)[nH]1
cytotoxicity (Ba/F3; 1 µg/mL): not toxic

C[C@H](CCC1OC1(C)C)[C@@H]1CC[C@]2(C)C3=C(CC[C@@]12C)[C@@]1(C)CC[C@H](O)C(C)(C)[C@@H]1CC3 (stereo partly shown)
inhibition (HCT-15; cell growth or viability, SRB; 50 µM): 16.4%

O=c1ccn([C@@H]2O[C@H](CO)[C@@H](O)[C@H]2F)c(=O)[nH]1
CC50 (SNB-78; sulforhodamine B; 11 days, galactose medium): > 250 µM

O=C(CCl)Sc1nnc(-c2n[nH]c(=O)c3ccccc23)o1
mRNA level (HepG2; qRT-PCR, item: CDK1; IC50, 8 h; reference: untreated): 1.04 ± 0.25 fold

CNc1c(C)n(C)n(-c2ccccc2)c1=O
mRNA level (HepaRG PXR knockout; item: CYP2C9; 300 µM, 72 h; reference: untreated): increased

A few entries again:
C=CC(=O)Nc1cc(Nc2ncnc(Nc3cc(Cl)c(F)cc3C(C)(C)O)n2)c(OC)cc1N1CCC(N(C)C)C1 (stereo not shown)
CLint (human hepatocytes): 2.8 (µL/min)/(10⁶ cells)

C=Cc1c(C)c2cc3nc(cc4[nH]c(cc5nc(cc1[nH]2)C(C)=C5CCC(=O)NC(CC(=O)[O-])C(=O)[O-])c(CCC(=O)NC(CC(=O)[O-])C(=O)[O-])c4C)C(C)(O)C3=CC=NO.[Na+].[Na+].[Na+].[Na+] (stereo not shown)
cellular content (T.Tn cells; 50 µg/mL, 4°C): 20 ng/mg protein

CC(=O)O[C@@H]1[C@@H](OC(C)=O)[C@H](Sc2sc(C(=O)c3ccc(C)cc3)c(N)c2-c2nc3ccccc3s2)OC[C@H]1OC(C)=O
maximum non-toxic concentration (HEp-2; cytotoxicity; 72 h): 90 µg/mL

OC[C@H]1O[C@@H](n2cnc3c(O)ncnc32)[C@H](F)[C@@H]1O
CC50 (SkMC; sulforhodamine B; 11 days, glucose medium): > 250 µM

Cc1ccc(S(=O)(=O)Nn2c3c(cc(-c4nc5ccccc5s4)c2=O)CCCC3)cc1
maximum non-toxic concentration (HEp-2; trypan blue; 72 h): 130 µg/mL

C=C(c1cc(F)c(C(=O)O)c(F)c1)c1cc2c(cc1C)C(C)(C)CCC2(C)C
lowest effective concentration (TK6; cytotoxicity, GreenScreen; with: rat liver S9): 47.3 µg/mL
